# Results of several laboratories.
# Parts stem from different laboratories: compare values within a part only. Several values in a cell are separate wells, animals, samples, runs or records. pIC50: −log10 of the molar value.

# Set 1 — method: KINOMEscan; tested at: 10 µM; reference: DMSO control; direction: lower = stronger binding
# SMILES: COc1cc(C(=O)N2CCC(N3CCN(C)CC3)CC2)ccc1Nc1ncc2c(n1)N(C)c1ccccc1C(=O)N2C
target,binding
ADCK4,94%
STK35,100%
CDKL3,83%
EPHB1,98%
CDC2L2,82%
CAMK1,55%
SRPK3,72%
DRAK1,100%
TXK,91%
MUSK,99%
MEK3,75%
LATS2,95%

# Set 2 — cell line: normal organoid sample E; method: CellTiter-Glo; host: human; matrix: normal-adjacent epithelium; tested at: 1 µM; reference: DMSO
Compound,viability
CN1CCN(Cc2ccc(Nc3ncc(Cl)c(Nc4ccccc4S(=O)(=O)N(C)C)n3)cc2)CC1,6.7% and 7.8%
C[C@@H](c1cccc(C#N)c1)n1cc(Cl)cc(C(N)=O)c1=N,111% and 133%
Cn1cnc2c(F)c(Nc3ccc(Br)cc3Cl)c(C(=O)NOCCO)cc21,98.2% and 66.3%
CC(=O)N1CCC(c2ccc(C(=O)NC3=NCCN3)cc2C(F)(F)F)CC1,90.7% and 88.2%
CCC(=O)N[C@@H]1CC[C@H](C(=O)N(C)c2ccc(-c3nc4ccccc4o3)cc2)C1,93.7% and 75.5%
Cn1cncc1[C@](O)(COc1ccc(C#N)cc1-c1ccc(OC(F)(F)F)cc1)c1ccc(C#N)cc1,25.1% and 42.9%
COc1cc(-c2cn(C3CCc4ccccc4N(CC(F)(F)F)C3=O)nn2)ccc1-n1ccc(C)n1 (stereo not drawn),111% and 94.8%
C[C@@H](NC(=O)Nc1cc2[nH]ncc2c(CO)n1)c1ccccc1,66.4% and 58.7%
CN1CCN(c2cnc3c(C4CCN(C(=O)c5ccc(OC(F)(F)F)cc5N)CC4)ncnc3c2)CC1,94.9% and 97.7%
Cc1noc([C@H]2C[C@@H](c3ccc(C(F)(F)F)cc3)CN(C(=O)N3CCS(=O)(=O)C3)C2)n1,128% and 98.5%
COc1cc(-c2cn(C3CCc4c(F)cccc4N(CC(F)(F)F)C3=O)nn2)ccc1-n1cnc(C)c1 (stereo not drawn),129% and 114%
Cc1cn(-c2cc(NC(=O)c3ccc4c(c3)CN(c3cncnc3)C[C@@H]4C)cc(C(F)(F)F)c2)cn1,200% and 119%

# Set 3 — read-out: enzyme activity; mode: inhibitor; tested at: 0.5 µM; reference: control
# Target: Calcium/calmodulin-dependent protein kinase type II subunit gamma (CAMK2G, Homo sapiens, UniProt Q13555)
# UniProt Q13555, sequence (whole entry, looked up): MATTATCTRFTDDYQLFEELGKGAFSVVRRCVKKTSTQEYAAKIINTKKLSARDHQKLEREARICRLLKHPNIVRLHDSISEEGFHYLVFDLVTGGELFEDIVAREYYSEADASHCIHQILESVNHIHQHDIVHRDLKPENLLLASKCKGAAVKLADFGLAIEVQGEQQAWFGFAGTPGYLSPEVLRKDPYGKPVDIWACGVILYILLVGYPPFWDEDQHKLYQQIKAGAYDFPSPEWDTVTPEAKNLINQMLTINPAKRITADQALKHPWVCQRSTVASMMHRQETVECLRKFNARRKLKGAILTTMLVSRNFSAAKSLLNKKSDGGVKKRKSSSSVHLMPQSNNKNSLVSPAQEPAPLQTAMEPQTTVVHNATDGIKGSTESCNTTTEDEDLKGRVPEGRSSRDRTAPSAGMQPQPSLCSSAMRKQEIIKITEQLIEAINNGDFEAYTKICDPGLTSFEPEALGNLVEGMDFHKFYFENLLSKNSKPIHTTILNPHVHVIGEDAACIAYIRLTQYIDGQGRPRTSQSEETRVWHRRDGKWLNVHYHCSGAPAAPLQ
SMILES,remaining activity [%]
Cn1cnc2cc3c(Nc4cccc(Br)c4)ncnc3cc21,104
COc1ccc(Cl)cc1NC(=O)Nc1cc(C)nc2ccccc12,91.6
CC(C)c1nn(-c2c(Cl)cccc2Cl)c2nc(Cc3ccc(OCCO)cc3)[nH]c(=O)c12,98.9
Nc1[nH]nc2nnc(-c3c(-c4ccccc4)nn4ccccc34)cc12,96.7
COc1cc2ncnc(Nc3ccc(OCc4ccccc4)cc3)c2cc1OC,94.2
C[S+]([O-])c1ccc(-c2nc(-c3ccncc3)c(-c3ccc(F)cc3)[nH]2)cc1 (stereo not drawn),82.2
CC(=O)O/N=C1/C(c2c(O)[nH]c3cc(Br)ccc23)=Nc2ccccc21,70.6
CC(C)[C@H](CO)Nc1nc(Nc2cccc(Cl)c2)c2ncn(C(C)C)c2n1,96.9
Cn1cc(/C=C2\C(=O)Nc3ccc(S(N)(=O)=O)cc32)c2ccccc21,91.9
COc1cc2ncc(-c3ccccc3)nc2cc1OC,94.5
CCN1/C(=C/C(C)=O)Sc2ccc(OC)cc21,90.4
O=C1NC(=O)/C(=C/c2ccc3nccnc3c2)S1,101
O=C(Nc1ccc(Cl)cc1)c1ccccc1NCc1ccncc1,89.2
CCC(=O)Nc1ccc2ncnc(Nc3cccc(Br)c3)c2c1,105
CCOc1cc2ncnc(Nc3cccc(Br)c3)c2cc1OCC,96.5
CN(C)CCCn1cc(C2=C(c3c[nH]c4ccccc34)C(=O)NC2=O)c2ccccc21,73.3
Cc1ccc(NC(=O)c2ccc(CN3CCN(C)CC3)cc2)cc1Nc1nccc(-c2cccnc2)n1,102
COc1ccc(-c2cnc3c(-c4ccsc4)cnn3c2)cc1,93.7
O=c1cc(N2CCOCC2)oc2c1ccc1ccccc12,95.5
Cc1nc(Nc2ncc(C(=O)Nc3c(C)cccc3Cl)s2)cc(N2CCN(CCO)CC2)n1,103
COc1cc2ncnc(N3CCN(C(=O)Nc4ccc(Oc5ccccc5)cc4)CC3)c2cc1OC,100

# Set 4 — mode: inhibitor; notes: literature data
# Target: Synaptic vesicular amine transporter (SLC18A2, Homo sapiens, UniProt Q05940)
# UniProt Q05940, sequence (whole entry, looked up): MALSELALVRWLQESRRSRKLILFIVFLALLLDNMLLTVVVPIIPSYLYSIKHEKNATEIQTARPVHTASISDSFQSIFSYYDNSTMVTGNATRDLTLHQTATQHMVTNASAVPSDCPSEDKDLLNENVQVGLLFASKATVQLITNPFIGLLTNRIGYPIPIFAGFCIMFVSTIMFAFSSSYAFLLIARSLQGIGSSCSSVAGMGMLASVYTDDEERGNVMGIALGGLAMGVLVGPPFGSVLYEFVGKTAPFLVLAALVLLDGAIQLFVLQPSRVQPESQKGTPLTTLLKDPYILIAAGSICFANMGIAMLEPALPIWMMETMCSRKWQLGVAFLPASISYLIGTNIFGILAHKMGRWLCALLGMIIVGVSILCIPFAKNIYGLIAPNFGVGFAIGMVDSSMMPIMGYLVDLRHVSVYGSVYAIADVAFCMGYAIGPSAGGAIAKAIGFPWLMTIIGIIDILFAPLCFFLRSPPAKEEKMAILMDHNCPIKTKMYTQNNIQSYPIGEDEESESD
Compound,pIC50
CCN(CC)CCOC(=O)c1ccc(N)cc1,< 5.00
c1cnc(N2CCN(Cc3ccc4c(c3)OCO4)CC2)nc1,< 5.00
C[C@H](Cc1cc2c(c(C(N)=O)c1)N(CCCO)CC2)NCCOc1ccccc1OCC(F)(F)F,5.79
Nc1ccn([C@@H]2CS[C@H](CO)O2)c(=O)n1,< 5.00
CC[C@@H]([C@H](C)O)n1ncn(-c2ccc(N3CCN(c4ccc(OC[C@@H]5CO[C@@](Cn6cncn6)(c6ccc(F)cc6F)C5)cc4)CC3)cc2)c1=O,< 5.00
CN(C)CCCN1c2ccccc2CCc2ccccc21,< 5.00
CCC(C)n1ncn(-c2ccc(N3CCN(c4ccc(OCC5COC(Cn6cncn6)(c6ccc(Cl)cc6Cl)O5)cc4)CC3)cc2)c1=O (stereo not drawn),< 5.00
CCCN1C[C@H](CSC)C[C@@H]2c3cccc4[nH]cc(c34)C[C@H]21,< 5.00
CC(=O)NC[C@H]1CN(c2ccc(N3CCOCC3)c(F)c2)C(=O)O1,< 5.00
CC(C)NCC(O)COc1cccc2[nH]ccc12 (stereo not drawn),< 5.00
CCOc1cc2ncc(C#N)c(Nc3ccc(OCc4ccccn4)c(Cl)c3)c2cc1NC(=O)/C=C/CN(C)C,6.06
CC(NCCc1ccc(O)cc1)C(O)c1ccc(O)cc1 (stereo not drawn),6.60

# Excerpt of the above (set 3):
SMILES,remaining activity [%]
COc1cc2ncnc(N3CCN(C(=O)Nc4ccc(Oc5ccccc5)cc4)CC3)c2cc1OC,100
COc1cc2ncc(-c3ccccc3)nc2cc1OC,94.5
Cc1nc(Nc2ncc(C(=O)Nc3c(C)cccc3Cl)s2)cc(N2CCN(CCO)CC2)n1,103
Cn1cc(/C=C2\C(=O)Nc3ccc(S(N)(=O)=O)cc32)c2ccccc21,91.9
Cc1ccc(NC(=O)c2ccc(CN3CCN(C)CC3)cc2)cc1Nc1nccc(-c2cccnc2)n1,102
O=C(Nc1ccc(Cl)cc1)c1ccccc1NCc1ccncc1,89.2
Cn1cnc2cc3c(Nc4cccc(Br)c4)ncnc3cc21,104
